Measurements gathered from unrelated publications.
Every numbered part comes from another study and shows a few of its results, in no order.

Set 1 — technique: protein-binding microarray; form: double-stranded DNA, one strand shown; medium: in vitro; concentration: 0.8 µM; setting: whole 60-bp probe, no competitor; direction: higher = stronger binding; constant ends, left off below: … GTCTTGATTCGCTTGACGCTGCTG
Target: Centromere-binding protein 1, full length, N-terminal tag (CBF1, Saccharomyces cerevisiae, UniProt P17106, residues 1-351)
Sequence of UniProt P17106 (whole entry, looked up): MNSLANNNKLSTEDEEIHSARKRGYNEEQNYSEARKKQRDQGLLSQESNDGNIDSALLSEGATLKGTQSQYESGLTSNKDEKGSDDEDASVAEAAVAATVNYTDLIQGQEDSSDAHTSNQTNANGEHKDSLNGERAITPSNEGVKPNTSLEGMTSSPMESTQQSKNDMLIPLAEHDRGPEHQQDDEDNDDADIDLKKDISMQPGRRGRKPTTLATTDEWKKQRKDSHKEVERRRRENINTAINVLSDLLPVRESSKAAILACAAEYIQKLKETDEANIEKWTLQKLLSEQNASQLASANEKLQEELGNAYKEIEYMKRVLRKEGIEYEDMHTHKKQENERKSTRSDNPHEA
Oligonucleotide	fluorescence intensity [a.u.]
CTACAAGTGACTCGAGACCACGTGGAAAGATCCTTC	5450
CCTAACTACTATACGCACGTGCTATAGCTTCGTACA	14600
CTAAAGGCCAGTAGCAACAACACGTTTTCTTGGTTC	614
GAACTGATCGTAGATCATCAGATTTGATATGATTAG	511
CTAGTAACCCACTTTAACGTGACTGGACCTGAGTTC	824
GAAAAGTGTTTTACCTACGTGACAGTAAGAGTATAG	659
GAAGGGTAGTCATTCATCGTGATGATTCATTATTAG	522
CTATTGTTTTTGCACCACCTTGTTACATATAATTTC	577
GAACTCCCCCTAAATCTCGTGATTAGAGTTTCATAG	1750

Set 2 — technique: protein-binding microarray; form: double-stranded DNA, one strand shown; medium: in vitro; concentration: 250 nM; setting: 60-bp whole probe; together with: salmon DNA 0.4 mg/ml; reference: random background probes; direction: higher = stronger binding; constant ends, left off below: GCCTAGCAC … GTCTTGATTCGCTTGACGCTGCTG
Target: Interferon regulatory factor 7, full length, phosphomimetic (IRF7, Homo sapiens, UniProt Q92985, residues 1-503, S101K/S471D/S472D/S475D/S476D/S477D/S483D/S484D/S487D)
Construct (chain): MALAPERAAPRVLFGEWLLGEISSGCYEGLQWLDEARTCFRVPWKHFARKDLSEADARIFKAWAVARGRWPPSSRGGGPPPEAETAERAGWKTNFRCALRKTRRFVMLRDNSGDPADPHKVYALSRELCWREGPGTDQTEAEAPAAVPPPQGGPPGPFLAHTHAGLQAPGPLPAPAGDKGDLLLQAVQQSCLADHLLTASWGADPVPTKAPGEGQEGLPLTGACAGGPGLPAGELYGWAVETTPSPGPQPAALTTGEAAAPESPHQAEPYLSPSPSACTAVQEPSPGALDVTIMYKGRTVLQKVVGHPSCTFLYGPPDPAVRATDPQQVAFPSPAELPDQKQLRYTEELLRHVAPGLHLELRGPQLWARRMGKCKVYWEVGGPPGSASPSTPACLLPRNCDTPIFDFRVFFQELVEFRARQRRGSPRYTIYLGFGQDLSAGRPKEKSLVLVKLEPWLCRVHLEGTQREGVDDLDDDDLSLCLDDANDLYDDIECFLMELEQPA
Oligonucleotide	log fluorescence
CTCCCTCAGGGTTTCAGATGGTGCTAG	-0.133 z-score
CAGAGTCTAGCCATTGTGGGTGTGCTA	-0.873 z-score
CCAACTCGCCTTTTTTGTTGGTGCTAG	0.337 z-score
TCATCTTTCTACATAGAACTGTGCTAG	0.912 z-score
CTTTCTTTATGCACTCTCTACGTGCTA	1.89 z-score
TCCATTTTGGTTTTCATTATGTGCTAG	1.22 z-score
GACGGTATCGGTATCGCGACGTGCTAG	1.16 z-score
GACGATATCAGTTTGGAGACGTGCTAG	-0.258 z-score
TTAGGTATCGGTTTCGGTTCGTGCTAG	13.1 z-score

Set 3 — technique: RNA Bind-n-Seq; form: RNA; medium: in vitro; concentration: not given; setting: RNA with constant flanks, ends assumed; reference: input RNA pool; direction: higher = stronger binding
Target: RING finger protein unkempt homolog, zinc fingers 1-6, GST-SBP tag (UNK, Homo sapiens, UniProt Q9C0B0, residues 30-357)
Sequence of UniProt Q9C0B0 (30-357, looked up): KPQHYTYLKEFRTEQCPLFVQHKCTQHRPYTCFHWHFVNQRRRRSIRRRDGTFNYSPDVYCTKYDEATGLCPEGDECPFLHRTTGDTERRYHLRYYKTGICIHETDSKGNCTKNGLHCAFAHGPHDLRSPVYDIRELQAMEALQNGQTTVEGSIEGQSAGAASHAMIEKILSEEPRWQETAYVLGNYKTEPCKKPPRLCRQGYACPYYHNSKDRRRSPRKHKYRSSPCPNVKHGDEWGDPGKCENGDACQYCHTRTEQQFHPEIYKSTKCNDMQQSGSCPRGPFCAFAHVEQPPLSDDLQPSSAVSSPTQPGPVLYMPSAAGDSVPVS
Constant ends, left off below: GGGAGUUCUACAGUCCGACGAUC … CAACAGAGGAUUGAGCAUCA
Oligonucleotide	bound/input enrichment [ratio]
AAUGCAGUAGAAGCCAUCCACAGAGCUGUGGAAUUUAAUCCACACGUGCCAAAAUAUCUACCCGAAAUGAAAAGCUUAAUCCUCCCACCAGAACACAUCCUGAAGAGAGGAGACAGUGAA	0.507
AAGGCCCUGCAGGAGCAGCUCAGUGAGAUUCGGAGUCGAGAAGAAGAGCCGUUUUCAUUUUACCGCGAUCAAACAUCGUAUCUGAGUAUUUGCCUUGAAGAGCACAAUCAGUUCCAAUUG	0.292
UAUACUGGGAUUGAUCAUCACUGGAAAGAAGCUGUUUUUGCCACAUGUGGACAGCAAGCCGACAUUUGGGAUGAACAAAGAACUAAUCCUAUAUGUUCAAUGACCUGGGGAUUUGACAGU	0.0716
CUGGACACCAACAGUGAUGGUCAGCUAGAUUUCUCAGAAUUUCUUAAUCUGAUUGGUGGCCCCGCUAUGGCUUGCCAUGACUCCUUCCUCAAGGCUGUCCCUUCCCAGAAGCGGACCUGA	0.104
AAGGUAUUUGGAGGUACUGUGCACAAAAAAAGUGUCAGAGAAGAUGGAGUUUUCAACAUCCGUGUGGAUAAUACAUGUUCAUUAUUCAGGGGCCUUCAGAAGGAAGAAGUUGUUUUGCUU	0.212
UACAGAGGAAGGGGUAGAGGGUAUUAUCAAGGAGGAGGAGGUAGAUAUCAUCGAGGUGGUUACCGACCUGUCUGGAAUAGAAGGCACUCUAGGAGUCCUAGACGAGGUCGUUCACGUUCC	0.232
CGGAAGUGAUCCCCUGCGUGGCUGGGCUGCUCGGGUUAGAUCGUCAGGAAAAGCCUAAAGAUCCGACUGUAAGAAAAGAAAAUAGAAGCCAUGUUUCGAAGACCUGUAUUACAGGUACUU	0.361
CAAGUACAUCUUGGUGUUAGUGAUGAUCUUGGAUUGCUUGCUCACAUGACCGGUAGCGCCGACUUAACUUGUACAUCCAGUAUAAUAGAAGAAAAAGAAUUCAAAAUCCAUACAACUUCA	0.628

Further values, each from its own experiment
Substance	target	assay	test system	conditions	scale	endpoint	result
PhoQ, residues 284 288 289 292 302 303 ASSHFY	PhoP, residues 12 14 15 18 19 LHATL (Escherichia coli, UniProt P23836)	Sort-seq, refers to: YFP reporter	E. coli	PhoQ-PhoP variant library, together with: 10 µM Mg2+	reference: high Mg2+ state, higher = stronger signaling	fold induction	12.7

A few entries again (set 2):
Oligonucleotide	log fluorescence
CAGAGTCTAGCCATTGTGGGTGTGCTA	-0.873 z-score
CCAACTCGCCTTTTTTGTTGGTGCTAG	0.337 z-score
TCATCTTTCTACATAGAACTGTGCTAG	0.912 z-score
